Measurements of several laboratories.
Protocols differ between the studies behind these lines. Several values in a cell are separate wells, animals, samples, runs or records. ± gives the spread as reported.

Compound | test | system | setting | quantity | value
N#C[C@@H]1CC(F)(F)CN1C(=O)CNC(=O)c1ccnc2ccc(OCCCN3CCN(C(=O)CN4CCN(CC(N)=O)CCN(CC(N)=O)CCN(CC(N)=O)CC4)CC3)cc12 | iTLC | mouse serum | 72 h, 37 °C, lead-203-labelled | intact complex | 100%
CCCC[C@H](NC(=O)COCCOCCNC(=O)CN1CCN(CC(=O)O)CCN(CC(=O)O)CC1)C(=O)N[C@H]1CC(=O)NCCCC[C@@H](C(N)=O)NC(=O)[C@H](Cc2c[nH]c3ccccc23)NC(=O)[C@H](CCCNC(=N)N)NC(=O)[C@@H](Cc2ccccc2)NC(=O)[C@H](Cc2c[nH]cn2)NC1=O [technetium-99m labelled] |  | C57 mouse, bone | intravenous, 0.037 MBq, 24 h | tissue uptake | 0.13 ± 0.03 %ID/g
N#C[C@@H]1CC(F)(F)CN1C(=O)CNC(=O)c1ccnc2ccc(OCCCN3CCN(C(=S)Nc4ccc(C[C@H]5CN(CC(N)=O)CCN(CC(N)=O)CCN(CC(N)=O)CCN5CC(N)=O)cc4)CC3)cc12 | iTLC | human serum | 72 h, 37 °C, lead-203-labelled | intact complex | 100%
C=C1CC[C@H](OCCCNC(=O)CCOCCOCCOCCOCCOCCOCCOCCOCCOCCOCCOCCOCCOCCOCCOCCOCCOCCOCCOCCOCCOCCOCCOCCOCCOCCOCCOCCOCCOCCOCCOCCOCCOCCOCCOCCOCCNC(=O)CCN2C(=O)CC(SC[C@H](NC(=O)[C@H](Cc3ccccc3)NC(=O)[C@H](CC(N)=O)NC(=O)[C@H](Cc3c[nH]cn3)NC(=O)[C@@H](NC(=O)[C@H](CC(=O)O)NC(=O)[C@H](CCC(N)=O)NC(=O)[C@H](CC(C)C)NC(=O)[C@H](CCCCN)NC(=O)[C@H](CCCCN)NC(=O)[C@H](CCCNC(=N)N)NC(=O)[C@H](CC(C)C)NC(=O)[C@H](Cc3c[nH]c4ccccc34)NC(=O)[C@H](CCC(=O)O)NC(=O)[C@@H](NC(=O)[C@H](CCCNC(=N)N)NC(=O)[C@H](CCC(=O)O)NC(=O)[C@H](CCSC)NC(=O)[C@H](CO)NC(=O)[C@H](CC(N)=O)NC(=O)[C@H](CC(C)C)NC(=O)[C@H](Cc3c[nH]cn3)NC(=O)[C@H](CCCCN)NC(=O)CNC(=O)[C@H](CC(C)C)NC(=O)[C@H](CC(N)=O)NC(=O)[C@H](Cc3c[nH]cn3)NC(=O)[C@H](CCSC)NC(=O)[C@H](CC(C)C)NC(=O)[C@H](CCC(N)=O)NC(=O)[C@@H](NC(=O)[C@H](CCC(=O)O)NC(=O)[C@H](CO)NC(=O)[C@@H](NC(=O)[C@@H](N)CO)C(C)C)[C@@H](C)CC)C(C)C)C(C)C)C(=O)O)C2=O)C/C1=C/C=C1\CCC[C@]2(C)[C@@H]([C@H](C)CCCC(C)(C)O)CC[C@@H]12 (stereo partly shown) |  | rat, plasma | subcutaneous, 30 µg/kg, single dose | bioavailability | 12.9%
CC(C)C[C@@H](NC(=O)[C@@H](CC(C)C)NC(=O)[C@@H](CC(=O)O)NC(=O)[C@@H](CC(C)C)NC(=O)[C@@H](CC(C)C)NC(=O)[C@@H](CC(C)C)NC(=O)[C@H](NC(=O)[C@@H](CC(=O)O)NC(=O)[C@H](NC(=O)[C@H]1CCCN1C(=O)[C@@H](Cc1ccccc1)NC(=O)[C@@H](CC(C)C)NC(=O)[C@@H](CC(C)C)NC(=O)[C@@H](CC(=O)O)NC(=O)[C@@H](CC(C)C)NC(=O)[C@@H](Cc1ccc(O)cc1)NC(=O)[C@@H](C)NC(=O)[C@@H](CCCNC(=N)N)NC(=O)[C@@H](Cc1c[nH]c2ccccc12)NC(=O)[C@H]1CCCN1C(=O)[C@@H](CC(N)=O)NC(=O)[C@@H](CCC(N)=O)NC(=O)[C@@H](CC(=O)O)NC(=O)[C@@H](CC(=O)O)NC(=O)[C@@H](CSC1CC(=O)N(CCNC(=O)CN2CCN(CC(=O)O)CCN(CC(=O)O)CC2)C1=O)NC(=O)[C@@H](C)N)[C@H](C)O)[C@H](C)O)C(=O)N[C@H](Cc1c[nH]c2ccccc12)C(=O)O (stereo partly shown) [copper-64 labelled] |  | C57BL/6 mice, female, B16-F10 melanoma, tumor | intravenous, 4 h | tissue uptake | 9.29 %ID/g
N#C[C@@H]1CC(F)(F)CN1C(=O)CNC(=O)c1ccnc2ccc(OCCCN3CCN(C(=S)Nc4ccc(C[C@H]5CN(Cc6ccccn6)CCN(Cc6ccccn6)CCN(Cc6ccccn6)CCN5Cc5ccccn5)cc4)CC3)cc12 | iTLC | human serum | 72 h, 37 °C, lead-203-labelled | intact complex | 100%
CC(C)C[C@H](NC(=O)[C@@H](CCCCNC(=O)[C@@H](Cc1ccccc1)NC(=O)CCCCCNC(=O)CN1CCN(CC(=O)O)CCN(CC(=O)O)CCN(CC(=O)O)CC1)NC(=O)[C@H](Cc1ccc(O)cc1)NC(=O)[C@H](CO)NC(=O)[C@H](Cc1c[nH]c2ccccc12)NC(=O)[C@H](Cc1c[nH]cn1)NC(=O)[C@@H]1CCC(=O)N1)C(=O)N[C@@H](CCCNC(=N)N)C(=O)N1CCC[C@H]1C(=O)NCC(N)=O [indium-111 labelled] |  | female athymic nude mice, bone | intravenous, 0.037 MBq, 1 h | tissue uptake | 0.07 ± 0.06 %ID/g
CC(C)C[C@H](NC(=O)[C@H](Cc1ccc(O)cc1)NC(=O)[C@@H](CCCNC(=N)N)NC(=O)[C@@H](CO)NC(=O)[C@H](Cc1ccccc1)NC(=O)[C@H](CC1CCCCC1)NC(=O)[C@H](CC(=O)O)NC(=O)CN1CCN(CC(=O)O)CCN(CC(=O)O)CCN(CC(=O)O)CC1)C(=O)N[C@@H](Cc1c[nH]c2ccccc12)C(=O)N[C@@H](CO)C(=O)O [copper-64 labelled] |  | human, heart | concentration not given, 3 h | activity concentration | 1390 Bq/mL and 2480 Bq/mL and 1720 Bq/mL and 1530 Bq/mL and 1700 Bq/mL and 1230 Bq/mL
CCCC[C@H](NC(=O)CCCCCCCNC(=O)CN1CCN(CC(=O)O)CCN(CC(=O)O)CC1)C(=O)N[C@H]1CC(=O)NCCCC[C@@H](C(N)=O)NC(=O)[C@H](Cc2c[nH]c3ccccc23)NC(=O)[C@H](CCCNC(=N)N)NC(=O)[C@@H](Cc2ccccc2)NC(=O)[C@H](Cc2c[nH]cn2)NC1=O [technetium-99m labelled] |  | C57 mouse, spleen | intravenous, 0.037 MBq, 24 h | tissue uptake | 0.07 ± 0.01 %ID/g
C[C@@H](O)[C@@H]1NC(=O)[C@H](CCCCN)NC(=O)[C@@H](Cc2c[nH]c3ccccc23)NC(=O)[C@H](Cc2ccc(O)cc2)NC(=O)[C@@H](NC(=O)[C@@H](Cc2ccccc2)NC(=O)CN2CCN(CC(=O)O)CCN(CC(=O)O)CCN(CC(=O)O)CC2)CSSC[C@@H](C(=O)N[C@H](CO)[C@@H](C)O)NC1=O [gallium-67 labelled] | gamma counting | ICR mice, male, liver | iv, 11 kBq/mouse, 3 h | tissue uptake | 0.32 ± 0.06 %ID/g

Some of these lines once more:
Compound | test | system | setting | quantity | value
C=C1CC[C@H](OCCCNC(=O)CCOCCOCCOCCOCCOCCOCCOCCOCCOCCOCCOCCOCCOCCOCCOCCOCCOCCOCCOCCOCCOCCOCCOCCOCCOCCOCCOCCOCCOCCOCCOCCOCCOCCOCCOCCOCCNC(=O)CCN2C(=O)CC(SC[C@H](NC(=O)[C@H](Cc3ccccc3)NC(=O)[C@H](CC(N)=O)NC(=O)[C@H](Cc3c[nH]cn3)NC(=O)[C@@H](NC(=O)[C@H](CC(=O)O)NC(=O)[C@H](CCC(N)=O)NC(=O)[C@H](CC(C)C)NC(=O)[C@H](CCCCN)NC(=O)[C@H](CCCCN)NC(=O)[C@H](CCCNC(=N)N)NC(=O)[C@H](CC(C)C)NC(=O)[C@H](Cc3c[nH]c4ccccc34)NC(=O)[C@H](CCC(=O)O)NC(=O)[C@@H](NC(=O)[C@H](CCCNC(=N)N)NC(=O)[C@H](CCC(=O)O)NC(=O)[C@H](CCSC)NC(=O)[C@H](CO)NC(=O)[C@H](CC(N)=O)NC(=O)[C@H](CC(C)C)NC(=O)[C@H](Cc3c[nH]cn3)NC(=O)[C@H](CCCCN)NC(=O)CNC(=O)[C@H](CC(C)C)NC(=O)[C@H](CC(N)=O)NC(=O)[C@H](Cc3c[nH]cn3)NC(=O)[C@H](CCSC)NC(=O)[C@H](CC(C)C)NC(=O)[C@H](CCC(N)=O)NC(=O)[C@@H](NC(=O)[C@H](CCC(=O)O)NC(=O)[C@H](CO)NC(=O)[C@@H](NC(=O)[C@@H](N)CO)C(C)C)[C@@H](C)CC)C(C)C)C(C)C)C(=O)O)C2=O)C/C1=C/C=C1\CCC[C@]2(C)[C@@H]([C@H](C)CCCC(C)(C)O)CC[C@@H]12 (stereo partly shown) |  | rat, plasma | subcutaneous, 30 µg/kg, single dose | bioavailability | 12.9%
